Measured values from different studies.
Compare with care: the assays were run in different laboratories. Numbers after ± are the reported error.
TDP1: Tyrosyl-DNA phosphodiesterase 1 (TDP1, Homo sapiens, UniProt Q9NUW8)
Sequence of UniProt Q9NUW8 (whole entry, looked up): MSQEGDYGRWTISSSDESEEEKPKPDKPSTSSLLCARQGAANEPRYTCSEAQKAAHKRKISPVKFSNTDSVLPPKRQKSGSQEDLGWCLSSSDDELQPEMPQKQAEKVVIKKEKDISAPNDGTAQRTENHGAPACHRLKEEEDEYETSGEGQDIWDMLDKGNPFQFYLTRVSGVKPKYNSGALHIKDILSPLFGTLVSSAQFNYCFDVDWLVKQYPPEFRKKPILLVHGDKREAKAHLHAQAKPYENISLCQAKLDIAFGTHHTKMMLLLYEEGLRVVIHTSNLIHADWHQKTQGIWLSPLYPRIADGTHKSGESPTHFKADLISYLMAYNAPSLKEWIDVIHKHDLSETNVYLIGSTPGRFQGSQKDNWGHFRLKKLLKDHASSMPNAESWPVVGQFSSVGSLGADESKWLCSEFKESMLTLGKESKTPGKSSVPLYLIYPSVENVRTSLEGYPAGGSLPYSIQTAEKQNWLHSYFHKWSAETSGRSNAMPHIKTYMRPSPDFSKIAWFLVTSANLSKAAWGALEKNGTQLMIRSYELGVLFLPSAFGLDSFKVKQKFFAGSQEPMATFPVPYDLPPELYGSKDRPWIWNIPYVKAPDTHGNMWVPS

| Compound | tested on | test | system | conditions | scale | quantity | value |
| --- | --- | --- | --- | --- | --- | --- | --- |
| CNS(=O)(=O)Nc1nccc(Cc2c(C)c3ccc(Oc4ncccc4F)cc3oc2=O)c1F | KYSE-450 | cell viability | – | 7 days | – | IC50 | > 1000 nM |
| C=CC(=O)N1[C@@H](c2ccc3c(c2)OCO3)c2[nH]c3ccccc3c2C[C@H]1C(=O)N1CCN(C)CC1 | CCNE1 WT-3xFLAG:CDK2 complex | co-IP TMT proteomics, item: TUBA1A | HEK-293T | 20 µM, 6 h | relative to: DMSO | log2 fold change | 0.08 |
| CCN(CC)CC(=O)Nc1cccc(-n2cc(-c3ccc4ccc(-c5cn(-c6cccc(NC(=O)CN(CC)CC)c6)nn5)cc4c3)nn2)c1 | RCC4 | PCR angiogenesis array, item: MMP9 | – | 5 x IC50, 2 h, normoxia | relative to: untreated | fold regulation | -1.09 |
| COc1cc(O)ccc1CCC(c1ccc(O)cc1)c1cc2c(c(C)c1O)OC(c1ccc(O)cc1)CC2 (mixture of isomers) | – | – | human blood | 30 µM, together with: A23187 | – | 12-HETE level | 9760 ± 3180 pg/mL |
| C=CC(=O)Nc1cccc(Cn2ncc3cnc(Nc4cnn(CCOC)c4)nc32)c1 | EPHB4 human | binding, KINOMEscan | – | 100 nM | lower = stronger binding | percent of control | 94% |
| Cc1ncsc1-c1ccc(C(C)NC(=O)C2CC(O)CN2C(=O)C(NC(=O)CCCCCCCCCCN2CCCC(Nc3ncc(Cl)c(Nc4ccccc4S(=O)(=O)C(C)C)n3)C2)C(C)(C)C)cc1 (stereo not drawn) | 22Rv1 | RNA-seq, item: SPRY4 mRNA | – | concentration not given | relative to: DMSO | log2 fold change | -1.23 |
| COc1cc(C=NOCc2ccc(-c3nc4cc(-c5ccccc5)ccn4c3Nc3ccc(C(=O)O)cc3)cc2)ccc1F (mixture of isomers) | TDP1 | enzyme activity, inhibitor | – | 100 µM, unpurified compound | – | inhibition | 23.7% |
| CO[C@@H]1OC[C@@H](O)[C@H](O)[C@H]1O | Helicobacter pylori | microbial growth, broth dilution | – | 1.95 µg/mL | – | inhibition | 0% |
| COCCOCCOCCNC(=O)Cc1cc(CC(=O)N[C@H]2C[C@H]3C(=O)Nc4cc(OCCOCCOCCOC)cc(n4)C(=O)N4CCC[C@H]4C(=O)Nc4cc(OCCOCCOCCOC)cc(n4)C(=O)N4CCC[C@H]4C(=O)Nc4cc(OCCOCCOCCOC)cc(n4)C(=O)N3C2)cc(CC(=O)N[C@H]2C[C@H]3C(=O)Nc4cc(OCCOCCOCCOC)cc(n4)C(=O)N4CCC[C@H]4C(=O)Nc4cc(OCCOCCOCCOC)cc(n4)C(=O)N4CCC[C@H]4C(=O)Nc4cc(OCCOCCOCCOC)cc(n4)C(=O)N3C2)c1 | – | anion binding, ITC | water/methanol 95 vol% (97.7 mol%) | 298 K, together with: sodium iodide | – | TΔS | 3.99 ± 0.0717 kcal/mol |
| CN1CCCNC(=O)c2cccc(c2)C(=O)NCCCN(C)CCCNc2cccc3c2C(=O)c2cccc(c2C3=O)NCCC1 | SAS | RNA-Seq, item: CARD9 mRNA | – | 1 µM, 6 h | relative to: untreated cells | log2 fold change | 3.48 |
| O=C(O)c1ccc(Nc2c(-c3ccccc3)nc3ccc(CON=CC4(c5ccccc5Cl)CCOCC4)cn23)cc1 | TDP1 | enzyme activity, inhibitor | – | 100 µM, unpurified compound | – | inhibition | 14% |
| COC1CN([C@H]2CC[C@H]([C@@]3(C)Oc4c(Cl)cc(C(=O)NCc5c(SC)cc(C)[nH]c5=O)c(C)c4O3)CC2)C1 | – | RNA-seq, item: IL18R1 | human, whole blood | dose not given, 24 h | relative to: pretreatment baseline | log2 fold change | 1.43 |
| Cn1ncc2cc(-c3cncc(Cl)c3N3CCC4(CCNC4=O)CC3)ccc21 | LS174T | microarray, item: PAH | – | concentration not given, 24 h | relative to: untreated cells | fold change in expression | 2.03 |
| Nc1ncc(-c2cc(-c3cnn(CC(F)(F)F)c3)ncc2F)nc1C(=O)NC1CNCC(F)C1 (stereo not drawn) | CLK4 | KINOMEscan | – | 1 µM | relative to: DMSO control | remaining binding | 48% |
| c1ccc(-c2n[nH]cc2-c2ccnc3ccccc23)nc1 | IKS1 (Candida albicans) | kinase binding, MIB/MS competition | Candida albicans lysate | 10 µM | relative to: DMSO | log2 fold change | -0.24 |

Repeated from above:
| Compound | tested on | test | system | conditions | scale | quantity | value |
| --- | --- | --- | --- | --- | --- | --- | --- |
| C=CC(=O)Nc1cccc(Cn2ncc3cnc(Nc4cnn(CCOC)c4)nc32)c1 | EPHB4 human | binding, KINOMEscan | – | 100 nM | lower = stronger binding | percent of control | 94% |
